Assay results pooled from the literature.
Protocols differ between the studies behind these lines. ± marks the error that the study gave.

Structure (SMILES) | target or system | assay | system | conditions | scale | quantity | value
CNCc1ccc2c(c1)C[C@H](CNC(=N)N)[C@H]2NC(=O)C(=O)Nc1ccc(Cl)c(F)c1 | Human immunodeficiency virus 1 | viral infection, Env pseudovirus | TZM-bl, SC422661.8 clade B |  |  | IC80 | 1140 nM
NS(=O)(=O)c1ccc(NC(=O)c2ccccc2SSc2ccccc2C(=O)Nc2ccc(S(N)(=O)=O)cc2)cc1 | Gag-Pol polyprotein, integrase residues 1-213 (gag-pol, Human immunodeficiency virus type 1 group M subtype B, UniProt P04585) | DNA binding, fluorescence anisotropy | integrase ΔC | compound:IN ratio 3:1, with: 10 mM Mn2+, U5 DNA |  | Hill coefficient | 1.21 ± 0.11
CC(=O)NCCN(CC(=O)NCCN(CC(=O)NCCN(CC(=O)NCCC(N)=O)C(=O)C[C@@H](N)Cc1ccccc1)C(=O)C[C@@H](N)CCCNC(=N)N)C(=O)C[C@@H](N)CCCNC(=N)N | HIV-1 TAR RNA |  |  | concentration not given, 25 °C |  | binding entropy term TΔS° | -0.12 ± 0.263 kcal/mol
CCCOC(=O)N1c2cc(CNC)ccc2[C@H](NC(=O)C(=O)Nc2ccc(Cl)c(F)c2)[C@H]1CNC(=N)N | HIV-1 | pseudovirus infection, Env pseudovirus neutralisation | TZM-bl, clade A |  |  | IC50 | 2620 nM
F[P-](F)(F)(F)(F)F.OC(Cn1cncn1)(Cn1cc(-[c-]2cccc2)nn1)c1ccc(F)cc1F.[Co+3].c1cc[cH-]c1 (racemic) | Trypanosoma cruzi |  | CL Brener |  | reference: Vero IC50 over parasite IC50 | selectivity ratio | 25
CC[C@H](C)[C@H](NC(=O)[C@H](CC(C)C)NC(=O)[C@H](CCCCN)NC(=O)[C@@H](N)CCCCN)C(=O)N[C@H](C(=O)N[C@@H](Cc1ccccc1)C(=O)N[C@H](C(=O)N1CCC[C@H]1C(=O)N[C@@H](CCCCN)C(=O)N[C@@H](CCCCN)C(=O)N[C@H](C(=O)N[C@@H](CCCNC(=N)N)C(=O)N[C@@H](CCC(=O)O)C(=O)N[C@@H](CCCCN)C(=O)N[C@@H](CCCCN)C(=O)N[C@@H](CCCCN)C(=O)N[C@@H](CCC(=O)O)C(=O)N[C@@H](CS)C(=O)N[C@@H](CC(C)C)C(=O)N[C@H](C(=O)O)C(C)C)[C@@H](C)O)[C@@H](C)CC)[C@@H](C)O | TTX-sensitive sodium channel | open-channel blocker, kinetic model fit | mouse hippocampal CA3 neurons | 200 µM intracellular, membrane potential -10 mV |  | unblocking rate constant | 4930 s⁻¹
COc1ccc(-c2cc(=O)c3c(O)c(OC)c(O)c(OC)c3o2)cc1O | Human immunodeficiency virus 1 | viral replication, inhibitor, luciferase | MT2 | 48 h |  | IC50 | 2700 nM
C[C@H](Nc1ncnc(N)c1C#N)c1c(-c2ccccc2)[nH]c2c(Cl)cccc2c1=O | B-cell lymphoma cell lines | cell proliferation, CellTiter-Glo |  | 72 h, median over 23 cell lines |  | IC50 | 7380 nM
CC(=O)NCCN(CC(=O)NCCN(CC(=O)NCCN(CC(=O)NCCC(N)=O)C(=O)[C@@H](N)CCCNC(=N)N)C(=O)[C@@H](N)CCCCN)C(=O)[C@@H](N)Cc1ccccc1 | HIV-1 TAR RNA |  |  | concentration not given, 25 °C |  | binding entropy term TΔS° | -7.6 ± 0.502 kcal/mol
CC[C@H](C)[C@H](NC(=O)[C@H](CC(C)C)NC(=O)[C@@H](NC(=O)[C@@H](NC(=O)[C@H](CC(C)C)NC(=O)[C@H](CCCCN)NC(=O)[C@@H](N)CCCCN)[C@@H](C)CC)[C@@H](C)O)C(=O)N[C@@H](Cc1ccccc1)C(=O)N[C@@H](CCCCN)C(=O)N[C@@H](CCCCN)C(=O)N[C@H](C(=O)N[C@@H](CCCNC(=N)N)C(=O)N[C@@H](CCC(=O)O)C(=O)N[C@@H](CCCCN)C(=O)N[C@@H](CCCCN)C(=O)N[C@@H](CCCCN)C(=O)N[C@@H](CCC(=O)O)C(=O)N[C@@H](CS)C(=O)N[C@@H](CC(C)C)C(=O)N[C@H](C(=O)O)C(C)C)[C@@H](C)O | TTX-sensitive sodium channel | open-channel blocker, kinetic model fit | mouse hippocampal CA3 neurons | 200 µM intracellular, membrane potential -30 mV |  | unblocking rate constant | 1330 s⁻¹
CNCc1ccc2c(c1)N(C(=O)OCc1c(F)c(F)c(F)c(F)c1F)[C@H](CNC(=N)N)[C@H]2NC(=O)C(=O)Nc1ccc(Cl)c(F)c1 | Human immunodeficiency virus 1 | viral infection, Env pseudovirus | TZM-bl, Du172.17 clade C |  |  | IC80 | 19300 nM
C=C1C[C@](OC)([C@H](O)C(=O)NC[C@@H]2C[C@@H](OC)C(C)(C)[C@@H](C[C@@H](COC)OC)O2)O[C@H](C)[C@@H]1C | Renca | cell viability, sulforhodamine B |  | 72 h, 37 °C, without H2O2 |  | IC50 | 0.9 ± 0.1 nM

Excerpt of the above:
Structure (SMILES) | target or system | assay | system | conditions | scale | quantity | value
C[C@H](Nc1ncnc(N)c1C#N)c1c(-c2ccccc2)[nH]c2c(Cl)cccc2c1=O | B-cell lymphoma cell lines | cell proliferation, CellTiter-Glo |  | 72 h, median over 23 cell lines |  | IC50 | 7380 nM
